Published values from different studies.
Compare with care: the assays were run in different laboratories.
Target: Testis-specific serine/threonine-protein kinase 3 (TSSK3, Homo sapiens, UniProt Q96PN8)

The remaining binding of `CC(C)=CC1OC(C)(C)C2C=C3C(=O)C(Cl)=CC(O)C3C3C(O)C4OC4C(=O)C132` (centres unmarked) is reported as 100% (cell-free assay, competition with immobilised ligand; 10 µM).
The remaining binding of `CCN1CCN(Cc2ccc(NC(=O)c3ccc(C)c(NC(=O)c4cncc(-c5cnn(C)c5)c4)c3)cc2C(F)(F)F)CC1` is reported as 100% (binding, competition with immobilised ligand; 1 µM).
The remaining binding of `COc1cc(Nc2nc(C)cc(-c3cnn4nc(OC)ccc34)n2)cc(C(F)(F)F)c1` is reported as 100% (binding, competition with immobilised ligand; 1 µM).
`Cc1cnc2nc1Nc1cccc(c1)COC/C=C/COCc1cc(ccc1OCCN1CCOCC1)N2` gave a remaining binding of 94% (binding, competition with immobilised ligand; 0.1 µM).
With `CNC(=O)C1CCN(c2cc(C)c(F)cc2NC(=O)c2ccc(-c3cc(O)ccc3C)c(C)c2)CC1` the remaining binding was 99% (binding, competition with immobilised ligand; 1 µM).
`Nc1ncc(-c2cc(-c3cnn(CC(F)(F)F)c3)ncc2F)nc1C(=O)NC1CNCC(F)C1` (centres unmarked) has a remaining activity of 95.8% (enzyme activity; 1 µM; reference: DMSO control).
For `O=C(Cc1ccc(OCc2ccccc2)cc1)NC1(C(=O)O)CCN(C(=O)c2ccc(-c3cccc(Cl)c3)cc2)CC1`, “activity vs control” read 103% (enzyme activity, inhibitor; 10 µM).
`CNC(=O)C[C@H](Cc1ccc(C#N)cc1)NC(=O)c1cc(-c2ccc(CN[C@H](C)c3ccc(C)cc3)o2)ccc1Cl` — result for “activity vs control”: 100% (enzyme activity, inhibitor; 1 µM).
`C=CC(=O)N1CCCC(n2c(=O)c3ncccc3n(Cc3ccc(Oc4ccccc4)cc3)c2=O)C1` (centres unmarked) has a remaining binding of 73% (cell-free assay, competition with immobilised ligand; 1 µM).
For `CCn1cc(C(=O)O)c(=O)c2c(N)c(F)c(NC3CCCCC3)cc21`, the inhibition was 9.3% (kinase activity; 0.1 µM, together with: ATP at Km).
`Cc1nc2c(F)cc(-c3nc(Nc4ccc(CNC(=O)CCCCCCC(=O)NO)cc4)ncc3F)cc2n1C(C)C` gave an inhibition of 13% (enzyme activity, inhibitor; 1 µM).
For `COc1cc(Nc2nccc(-c3cnn4nc(OC)ccc34)n2)cc(C(F)(F)F)c1`, the remaining binding was 83% (binding, competition with immobilised ligand; 1 µM).
`CN1CC[C@@H](COc2cnc(C#N)cc2-c2ccn3nc(NC(=O)C4CC4)cc3c2)C1` gave an inhibition of -9% (enzyme activity, inhibitor; 1 µM).
For `NC(=O)C[C@H]1CCc2sc3ncnc(O[C@H]4CC[C@H](N5CCOCC5)CC4)c3c21`, the inhibition was -5% (enzyme activity, inhibitor; 10 µM).
`COc1c(Cl)cccc1Nc1c(-c2ccncc2C#C[C@@]2(C)CCCN2C(=O)/C=C/CN(C)C)[nH]c2c1C(=O)NCC2` has a remaining binding of 82% (binding, competition with immobilised ligand; 3 µM).
With `NC(=O)[C@@H](O)C[C@H]1CCc2sc3ncnc(O[C@H]4CC[C@H](N5CCOCC5)CC4)c3c21` the inhibition was 0% (enzyme activity, inhibitor; 10 µM).
With `Nc1ncc2c(n1)-c1c([nH]c3ccc(C4=CCOCC4)cc13)CCC2` the remaining binding was 100% (binding, competition with immobilised ligand; 1 µM).

Some of these lines once more:
`COc1c(Cl)cccc1Nc1c(-c2ccncc2C#C[C@@]2(C)CCCN2C(=O)/C=C/CN(C)C)[nH]c2c1C(=O)NCC2` has a remaining binding of 82% (binding, competition with immobilised ligand; 3 µM).
